# Measured values collected from several papers.
# Protocols differ between the studies behind these lines. Values joined by “and” are separate records of one study, mostly repeats; a detail may differ. Numbers after ± are the reported error.
# TOP2A: DNA topoisomerase 2-alpha (TOP2A, Homo sapiens, UniProt P11388)
# Sequence of UniProt P11388 (whole entry, looked up): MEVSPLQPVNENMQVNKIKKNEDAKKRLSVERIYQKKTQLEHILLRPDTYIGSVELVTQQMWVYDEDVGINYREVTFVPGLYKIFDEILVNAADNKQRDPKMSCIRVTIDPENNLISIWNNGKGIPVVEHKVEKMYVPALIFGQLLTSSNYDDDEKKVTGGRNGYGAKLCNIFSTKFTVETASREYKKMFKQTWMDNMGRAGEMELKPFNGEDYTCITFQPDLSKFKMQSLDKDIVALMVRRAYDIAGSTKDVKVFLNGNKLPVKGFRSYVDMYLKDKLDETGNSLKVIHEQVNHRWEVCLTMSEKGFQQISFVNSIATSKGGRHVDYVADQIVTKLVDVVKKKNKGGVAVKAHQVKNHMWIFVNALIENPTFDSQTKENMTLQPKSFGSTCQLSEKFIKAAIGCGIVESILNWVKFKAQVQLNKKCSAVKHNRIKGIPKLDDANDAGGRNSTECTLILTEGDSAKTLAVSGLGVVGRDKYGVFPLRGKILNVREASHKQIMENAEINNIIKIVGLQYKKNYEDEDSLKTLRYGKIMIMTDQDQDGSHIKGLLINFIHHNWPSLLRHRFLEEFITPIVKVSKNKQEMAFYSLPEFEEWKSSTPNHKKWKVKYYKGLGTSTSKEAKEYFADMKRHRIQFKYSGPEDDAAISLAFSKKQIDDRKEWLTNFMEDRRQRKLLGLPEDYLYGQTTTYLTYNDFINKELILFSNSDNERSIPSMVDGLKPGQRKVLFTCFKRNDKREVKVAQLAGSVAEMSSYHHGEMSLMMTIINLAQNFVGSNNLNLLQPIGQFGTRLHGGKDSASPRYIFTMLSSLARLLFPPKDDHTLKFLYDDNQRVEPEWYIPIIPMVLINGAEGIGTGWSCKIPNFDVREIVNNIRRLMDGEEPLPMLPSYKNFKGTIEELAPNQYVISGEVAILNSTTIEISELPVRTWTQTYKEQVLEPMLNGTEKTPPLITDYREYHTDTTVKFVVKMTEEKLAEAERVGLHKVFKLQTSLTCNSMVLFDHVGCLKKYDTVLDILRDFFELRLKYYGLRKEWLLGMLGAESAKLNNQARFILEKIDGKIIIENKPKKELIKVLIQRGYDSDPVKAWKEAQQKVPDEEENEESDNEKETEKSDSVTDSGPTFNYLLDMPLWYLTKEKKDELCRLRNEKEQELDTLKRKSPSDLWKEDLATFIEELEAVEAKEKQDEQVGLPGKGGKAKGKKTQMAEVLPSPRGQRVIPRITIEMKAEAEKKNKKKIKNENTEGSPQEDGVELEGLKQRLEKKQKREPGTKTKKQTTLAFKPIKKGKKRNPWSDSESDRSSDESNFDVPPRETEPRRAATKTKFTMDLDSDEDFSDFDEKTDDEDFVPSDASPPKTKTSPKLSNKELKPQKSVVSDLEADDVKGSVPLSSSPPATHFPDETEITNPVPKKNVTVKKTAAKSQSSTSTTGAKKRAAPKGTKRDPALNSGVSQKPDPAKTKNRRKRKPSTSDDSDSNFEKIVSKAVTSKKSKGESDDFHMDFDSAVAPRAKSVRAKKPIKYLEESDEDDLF
# MT-CYB/UQCRFS1: MT-CYB/UQCRFS1 (Homo sapiens, UniProt P00156+P47985)
# Sequence of UniProt P00156 (whole entry, looked up): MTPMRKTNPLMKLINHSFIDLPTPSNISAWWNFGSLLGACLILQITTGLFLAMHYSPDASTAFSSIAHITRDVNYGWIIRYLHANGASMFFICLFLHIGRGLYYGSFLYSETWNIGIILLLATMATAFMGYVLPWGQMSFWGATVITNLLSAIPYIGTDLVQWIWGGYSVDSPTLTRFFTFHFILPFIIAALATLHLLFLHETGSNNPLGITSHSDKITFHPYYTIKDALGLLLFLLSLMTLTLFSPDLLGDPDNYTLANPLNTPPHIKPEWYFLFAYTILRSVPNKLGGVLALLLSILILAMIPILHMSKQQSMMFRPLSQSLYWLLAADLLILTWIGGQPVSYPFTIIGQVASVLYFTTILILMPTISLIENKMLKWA
# Sequence of UniProt P47985 (whole entry, looked up): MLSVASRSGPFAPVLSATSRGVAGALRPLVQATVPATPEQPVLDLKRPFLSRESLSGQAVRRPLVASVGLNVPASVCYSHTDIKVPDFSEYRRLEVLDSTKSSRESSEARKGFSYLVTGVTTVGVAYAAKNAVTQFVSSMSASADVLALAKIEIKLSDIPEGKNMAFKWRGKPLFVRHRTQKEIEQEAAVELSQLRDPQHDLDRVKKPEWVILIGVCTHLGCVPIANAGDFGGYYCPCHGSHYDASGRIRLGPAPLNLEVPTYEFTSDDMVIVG
# Protein lin-28 homolog A: Protein lin-28 homolog A (Mus musculus, UniProt Q8K3Y3)
# Sequence of UniProt Q8K3Y3 (whole entry, looked up): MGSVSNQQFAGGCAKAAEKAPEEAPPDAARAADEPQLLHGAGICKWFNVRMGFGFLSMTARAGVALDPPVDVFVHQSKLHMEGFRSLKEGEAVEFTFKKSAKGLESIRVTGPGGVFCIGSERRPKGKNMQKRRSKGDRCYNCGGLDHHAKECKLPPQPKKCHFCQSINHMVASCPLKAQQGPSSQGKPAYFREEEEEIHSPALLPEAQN
# Dehaloperoxidase B ferric: Dehaloperoxidase B, ferric (Amphitrite ornata, UniProt Q9NAV7)
# KEAP1 Kelch domain: Kelch-like ECH-associated protein 1, Kelch domain (KEAP1, Homo sapiens, UniProt Q14145)
# Sequence of UniProt Q14145 (whole entry, looked up): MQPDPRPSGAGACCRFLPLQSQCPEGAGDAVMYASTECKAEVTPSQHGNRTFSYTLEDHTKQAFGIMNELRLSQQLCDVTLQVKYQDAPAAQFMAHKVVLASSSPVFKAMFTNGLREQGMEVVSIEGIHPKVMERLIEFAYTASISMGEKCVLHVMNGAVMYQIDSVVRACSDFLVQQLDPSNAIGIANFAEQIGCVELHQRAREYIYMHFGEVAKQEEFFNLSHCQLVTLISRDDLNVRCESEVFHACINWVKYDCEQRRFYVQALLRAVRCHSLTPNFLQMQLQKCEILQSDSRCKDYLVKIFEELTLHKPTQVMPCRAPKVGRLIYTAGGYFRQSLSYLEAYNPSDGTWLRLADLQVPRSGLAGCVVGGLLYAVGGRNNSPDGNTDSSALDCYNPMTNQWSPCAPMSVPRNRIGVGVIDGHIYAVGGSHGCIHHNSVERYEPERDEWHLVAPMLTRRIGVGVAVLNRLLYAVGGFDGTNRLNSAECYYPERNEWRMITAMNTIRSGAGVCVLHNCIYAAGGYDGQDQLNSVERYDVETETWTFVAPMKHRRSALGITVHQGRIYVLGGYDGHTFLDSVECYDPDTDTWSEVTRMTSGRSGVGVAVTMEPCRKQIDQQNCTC
# T1: RNA aptamer; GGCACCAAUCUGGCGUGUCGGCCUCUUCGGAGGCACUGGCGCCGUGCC
# Sequence of UniProt Q64663 (whole entry, unmodified, looked up): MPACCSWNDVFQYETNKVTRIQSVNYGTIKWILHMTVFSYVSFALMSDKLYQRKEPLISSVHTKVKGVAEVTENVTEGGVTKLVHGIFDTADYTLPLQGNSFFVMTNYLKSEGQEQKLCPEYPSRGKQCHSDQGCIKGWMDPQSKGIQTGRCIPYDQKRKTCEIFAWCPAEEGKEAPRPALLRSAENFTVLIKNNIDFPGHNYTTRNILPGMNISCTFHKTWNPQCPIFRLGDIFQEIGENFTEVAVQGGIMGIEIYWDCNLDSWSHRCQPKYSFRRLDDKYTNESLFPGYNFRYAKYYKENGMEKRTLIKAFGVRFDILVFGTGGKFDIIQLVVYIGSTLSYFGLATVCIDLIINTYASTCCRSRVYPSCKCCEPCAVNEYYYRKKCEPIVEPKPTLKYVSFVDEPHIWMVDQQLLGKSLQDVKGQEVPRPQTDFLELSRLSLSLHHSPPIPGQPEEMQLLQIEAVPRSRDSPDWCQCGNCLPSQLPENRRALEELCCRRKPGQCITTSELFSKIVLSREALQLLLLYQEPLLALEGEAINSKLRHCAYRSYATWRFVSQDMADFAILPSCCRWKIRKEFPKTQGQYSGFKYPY
# Sequence of UniProt Q16774 (whole entry, looked up): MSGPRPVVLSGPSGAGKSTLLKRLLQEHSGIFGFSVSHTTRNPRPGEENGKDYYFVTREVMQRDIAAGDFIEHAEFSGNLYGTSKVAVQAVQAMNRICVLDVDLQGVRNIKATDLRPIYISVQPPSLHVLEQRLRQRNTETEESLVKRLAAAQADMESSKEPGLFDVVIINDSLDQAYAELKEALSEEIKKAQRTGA
# Sequence of UniProt P04406 (whole entry, looked up): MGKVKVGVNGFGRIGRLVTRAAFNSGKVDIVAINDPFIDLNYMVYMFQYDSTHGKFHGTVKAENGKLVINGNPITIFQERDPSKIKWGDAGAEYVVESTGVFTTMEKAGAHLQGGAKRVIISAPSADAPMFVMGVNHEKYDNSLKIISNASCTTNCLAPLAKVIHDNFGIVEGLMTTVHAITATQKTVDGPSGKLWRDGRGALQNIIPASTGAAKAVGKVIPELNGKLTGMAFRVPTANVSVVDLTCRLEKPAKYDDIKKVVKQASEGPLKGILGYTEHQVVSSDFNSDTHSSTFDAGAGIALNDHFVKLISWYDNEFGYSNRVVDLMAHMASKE
# Sequence of UniProt P18669 (whole entry, looked up): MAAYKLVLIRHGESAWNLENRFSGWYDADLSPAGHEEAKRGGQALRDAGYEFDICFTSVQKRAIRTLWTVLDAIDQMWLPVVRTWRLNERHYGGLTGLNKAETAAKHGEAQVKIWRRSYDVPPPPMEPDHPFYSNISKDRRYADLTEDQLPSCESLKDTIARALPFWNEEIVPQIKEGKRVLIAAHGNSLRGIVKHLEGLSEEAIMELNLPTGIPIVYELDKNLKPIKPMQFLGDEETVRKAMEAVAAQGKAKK
# Sequence of UniProt P51575 (whole entry, unmodified, looked up): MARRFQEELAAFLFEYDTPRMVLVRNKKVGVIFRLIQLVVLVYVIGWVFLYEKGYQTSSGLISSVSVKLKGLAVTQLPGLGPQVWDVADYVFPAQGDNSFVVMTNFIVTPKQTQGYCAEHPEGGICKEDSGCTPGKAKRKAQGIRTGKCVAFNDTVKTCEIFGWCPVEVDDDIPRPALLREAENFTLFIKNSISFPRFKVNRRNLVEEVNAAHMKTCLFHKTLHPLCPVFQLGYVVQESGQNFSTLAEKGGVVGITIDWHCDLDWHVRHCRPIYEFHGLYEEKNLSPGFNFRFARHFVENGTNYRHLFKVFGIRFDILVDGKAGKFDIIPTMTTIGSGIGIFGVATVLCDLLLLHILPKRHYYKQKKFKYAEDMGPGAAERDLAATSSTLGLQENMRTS
Structure (SMILES),target,test,system,setting,how to read,endpoint,result
O=c1nc(SCc2cc(F)cc(C(F)(F)F)c2)nc(SCc2ccc3nc(Cl)ccc3c2)[nH]1,TOP2A,ATPase activity,,"15.6 µM, added: ATP 0.25 mM",,ATP hydrolysis rate,0.944 µM/min and 1.38 µM/min
CN(CCO)c1ccc(/C=C(\C#N)c2ccc(C#N)cc2)cc1,"T1, RNA aptamer","fluorescence titration, Hill fit",,apparent,,Kd,1140 nM
CO[C@H]1O[C@H](COS(=O)(=O)O)[C@@H](O[C@@H]2O[C@@H](C(=O)O)[C@@H](O[C@H]3O[C@H](COS(=O)(=O)O)[C@@H](O[C@@H]4O[C@H](C(=O)O)[C@@H](O[C@H]5O[C@H](COS(=O)(=O)O)[C@@H](O)[C@H](O)[C@H]5NS(=O)(=O)O)[C@H](O)[C@H]4O)[C@H](OS(=O)(=O)O)[C@H]3NS(=O)(=O)O)[C@H](O)[C@H]2OS(=O)(=O)O)[C@H](O)[C@H]1NS(=O)(=O)O,"Beta-2-glycoprotein 1, domain V (APOH, Homo sapiens, UniProt P02749, V266L)",isothermal titration calorimetry,,"298 K, added: 50 mM NaCl",,binding free energy ΔG,-7320 cal/mol
NC(=O)NOCCCCCCCCCCCCCCCC[P+](c1ccccc1)(c1ccccc1)c1ccccc1.O=C([O-])C(F)(F)F,MT-CYB/UQCRFS1,"complex III-dependent respiration, Seahorse XF96",HCT-116,"0.3 µM, 24 h",relative to: control,oxygen consumption rate,94.2%
CCCCCCCC/C=C\CCCCCCCC(=O)OC(COC(=O)CCCCCCCCCCCCCCC)COP(=O)(O)OCCN (centres unmarked),"Cyclic nucleotide-gated potassium channel (Winmispira thermophila, UniProt G0GA88)","activator, stopped-flow Tl+ flux",DOPC/POX liposomes 3:1,"concentration not given, added: cAMP 1 mM",,fast activation amplitude share,~10%
NC(=O)NOCCCCCCCCCC[P+](c1ccccc1)(c1ccccc1)c1ccccc1.O=C([O-])C(F)(F)F,MT-CYB/UQCRFS1,"complex III-dependent respiration, Seahorse XF96",HCT-116,"50 µM, 24 h",relative to: control,oxygen consumption rate,36.8 ± 3.94%
N=C(N)SCc1ccccc1Cl,Protein lin-28 homolog A,,,,,Hill slope,-1.6
O=C(COP(=O)(O)O)[C@@H](O)[C@H](O)[C@H](O)COP(=O)(O)O,"Phosphoglycerate mutase 1 (Homo sapiens, UniProt P18669)",,,"0.07812 mM, unit not given",relative to: activity at 10 mM set to 100,enzyme activity,39.2 and 39.7 and 31.2
CCCC(C)N1CCC(N(Cc2cccc(CNC(=O)CCl)c2)C(=O)Nc2cccc(C(F)(F)F)c2)CC1 (centres unmarked),"DCN1-like protein 1 (Homo sapiens, UniProt Q96GG9)","covalent binder, LC-TOF mass spectrometry",,"60 µM, overnight, 4 °C, added: DCN1-like protein 1 30 µM",,covalent adduct formation,0%
Cc1ccc(N2CC(C(N)=O)CC2=O)cc1 (centres unmarked),"YTHDF2 (Homo sapiens, UniProt Q9Y5A9)","binding, affinity selection mass spectrometry",,,relative to: other proteins in batch,fold enrichment,1
CN(C)C(=O)C(CCN1CCC(O)(c2ccc(Cl)cc2)CC1)(c1ccccc1)c1ccccc1,"Calcium-activated potassium channel subunit alpha-1, with LRRC26 γ1 subunit (KCNMA1, Homo sapiens, UniProt Q12791)","BK current, inhibitor, inside-out patch clamp",excised membrane patch,"3 µM, γ1 coexpressed, individual fits, added: nominally 0 Ca2+ cytosolic",relative to: without loperamide,normalized Gmax,0.456 ± 0.055
Nc1ncnc2c1ncn2[C@@H]1O[C@H](COP(=O)(O)OP(=O)(O)OP(=O)(O)O)[C@@H](O)[C@H]1O,"P2X purinoceptor 7 (P2rx7, Rattus norvegicus, UniProt Q64663, I214A/Q143A/R125A)","ion current, agonist, two-electrode voltage clamp",Xenopus laevis oocytes,"100 µM, triple mutant",relative to: 100 µM compound response,normalized current,1
NCCS(=O)(=O)O,"SLC6A6 (Homo sapiens, UniProt P31641, S402A)","binding, microscale thermophoresis",,"1 mM, room temperature, added: 50 nM labelled protein",higher = more binding,normalised MST signal,-0.0237
Cc1cc(Nc2cc(N3CCN(C)CC3)nc(Sc3ccc(NC(=O)C4CC4)cc3)n2)[nH]n1,"CLK2 (Homo sapiens, UniProt P49760)","kinase activity, KinaseProfiler",,"0.03 µM, species human",relative to: control,remaining activity,108%
NC(=O)NOCCCCCCCCCCCCCC[P+](c1ccccc1)(c1ccccc1)c1ccccc1.O=C([O-])C(F)(F)F,MT-CYB/UQCRFS1,"complex III-dependent respiration, Seahorse XF96",HCT-116,"20 µM, 24 h",relative to: control,oxygen consumption rate,1.63 ± 4.97%
O=P(O)(O)O[C@H]1O[C@H](CO)[C@@H](O)[C@H](O)[C@@H]1O,AncA-Alt ancestral enzyme,"substrate, phosphomolybdate phosphate release",,"pH 6.5, 27 °C, reverse phosphorolysis, apparent Km, added: 25 mM mannose acceptor",,Km,13.2 ± 1.31 mM
C[C@@H](O)[C@H](NC(=O)[C@H](CS)NC(=O)[C@@H](N)CO)C(=O)O,"GAPDH (Homo sapiens, UniProt P04406)",spectrophotometric Vmax,,"10 µM, added: enzyme 10 nM",relative to: vehicle,enzyme activity,102% and 100% and 98.6%
O=S(=O)(O)C1CCNCC1,"SLC6A6 (Homo sapiens, UniProt P31641, G62A)","binding, microscale thermophoresis",,"7.81 µM, room temperature, added: 50 nM labelled protein",higher = more binding,normalised MST signal,-0.0167
O=c1nc(SCc2cc(F)cc(C(F)(F)F)c2)nc(SCc2csc3ccc(Cl)cc23)[nH]1,TOP2A,DNA cleavage,,3.9 µM,,mean linear DNA,0%
COc1cc(-c2cncc3c2CN(C)Cc2cc(N4CCNCC4)ccc2-3)cc(OC)c1OC,"MAP3K2 (Homo sapiens, UniProt Q9Y2U5)",kinase activity,,"1 µM, human enzyme, added: ATP 10 µM",relative to: DMSO control,remaining activity,103%
NC(=O)NOCCCCCCCCCCCC[P+](c1ccccc1)(c1ccccc1)c1ccccc1.O=C([O-])C(F)(F)F,MT-CYB/UQCRFS1,"complex III-dependent respiration, Seahorse XF96",HCT-116,"1.5 µM, 24 h",relative to: control,oxygen consumption rate,74 ± 2%
CCCCC[C@@H]1OC(=O)[C@@H](C)N(C)C(=O)[C@H](CCCCC)OC(=O)[C@@H](C)N(C)C(=O)[C@H](CC(=O)O)OC(=O)[C@@H](C)N(C)C(=O)[C@H](CCCCC)OC(=O)[C@@H](C)N(C)C1=O,"ryanodine receptor 2 (Sus scrofa, UniProt A0A5G2R1W3)","single-channel gating, planar lipid bilayer",,"50 µM, pCa 7, porcine",,open dwell time constant T1,1.5 ± 1.4 ms
C=CC(=O)N1CCN(c2nc(OC[C@@H]3CCCN3C)nc3c(F)c(-c4nc(N)cc(C)c4C(F)(F)F)c(Cl)cc23)[C@@H](C)C1,"GTPase KRas, GDP-bound (KRAS, Homo sapiens, UniProt P01116, Q61R)",SPR,,,,dissociation rate constant koff,0.0722 ± 0.0046 s⁻¹
O=C1OC2COC(=O)C2C=C1NC(=O)c1ccc(Cl)cc1 (centres unmarked),Protein lin-28 homolog A,,,,,Hill slope,-0.6
O=S(=O)(O)O,"GUK1 (Homo sapiens, UniProt Q16774)","enzyme activity, NADH-coupled",,"5 mM, added: ATP 2000 µM",,reaction velocity,0.116 µM/s and 0.123 µM/s and 0.135 µM/s
CCCCOc1cc(C(=O)NCCN(CC)CC)c2ccccc2n1,"PKD2L1 (Homo sapiens, UniProt Q9P0L9, F549I)",,,concentration not given,relative to: wild type,potency reduction,2 to 10 fold
Brc1ccc2[nH]ccc2c1,Dehaloperoxidase B ferric,"peroxidase activity, substrate, HPLC",,"10 µM, 5 min, pH 7, added: H2O2, enzyme 500 µM",,substrate conversion,48.1%
COc1cc(C(=O)NS(=O)(=O)c2ccccc2C)ccc1Cc1cn(C)c2ccc(NC(=O)OC3CCCC3)cc12,"LRRC8A/LRRC8C (Homo sapiens, UniProt Q8IWT6+Q8TDW0, M48D/T48D)",whole-cell patch clamp,HCT116 LRRC8-/- transfected,at +100 mV,,Hill coefficient,1.23
CC(=O)N[C@@H](C)C(=O)N[C@@H](CC(N)=O)C(=O)NCC(=O)N[C@@H](CC(N)=O)C(=O)N[C@@H](C)C(=O)N[C@@H](CCC(=O)O)C(=O)N[C@@H](CC(N)=O)C(=O)N[C@@H](CCC(=O)O)C(=O)N[C@@H](CCC(=O)O)C(=O)N[C@@H](CC(N)=O)C(=O)NCC(=O)N[C@@H](CCC(=O)O)C(=O)N[C@@H](CCC(N)=O)C(=O)N[C@@H](CCC(=O)O)C(=O)N[C@@H](C)C(=O)N[C@@H](CC(=O)O)C(=O)N[C@@H](CC(N)=O)C(=O)N[C@@H](CCC(=O)O)C(=O)N[C@H](C(=O)N[C@@H](CC(=O)O)C(N)=O)C(C)C,KEAP1 Kelch domain,"binding, ITC",,"pH 7, 298.15 K",,ΔH,-14.3 ± 0.153 kcal/mol
O=C(Cc1cccs1)N[C@@H]1C(=O)N2C(C(=O)[O-])=C(C[n+]3ccccc3)CS[C@H]12,"glpG (Escherichia coli, UniProt P09391)","enzyme activity, inhibitor, gel-based chimeric protein substrate",,,,IC50,inactive
O=C1Nc2ccc(Br)cc2C1O (centres unmarked),Dehaloperoxidase B ferric,"product, HPLC",,"added: 5-bromoindole 500 µM, H2O2 100 µM",,share of total products,7.7%
Nc1ncnc2c1ncn2[C@@H]1O[C@H](COP(=O)(O)CP(=O)(O)OP(=O)(O)O)[C@@H](O)[C@H]1O,"P2X purinoceptor 1 (P2RX1, Homo sapiens, UniProt P51575, L218T)",saturation binding,HEK293,1 nM,,specific binding,108 CCPM and 102 CCPM
NC(=O)NO,MT-CYB/UQCRFS1,"complex III-dependent respiration, Seahorse XF96",HCT-116,"250 µM, 24 h",relative to: control,oxygen consumption rate,89.1 ± 9.82%
COc1cc(O)c2c(c1)oc(=O)c1c3cc(O)c(O)cc3oc21,"MAL12 (Saccharomyces cerevisiae S288c, UniProt P53341)",fluorescence quenching,,307 K,,ΔH,-25 kcal/mol
CC[C@@H](C)[C@@H](NC(=O)[C@@H](Cc1ccc(O)cc1)NC(=O)[C@H]1CCCN1C(=O)[C@@H](CCCNC(=N)N)NC(=O)[C@H](N)Cc1c[nH]cn1)C(=O)N[C@H](C)C(=O)N[C@H](Cc1c[nH]cn1)C(=O)N[C@H](CCCNC(=N)N)C(=O)N[C@@H](C(=O)N[C@H](Cc1ccc(O)cc1)C(=O)N[C@H](CO)C(=O)N[C@H](Cc1ccccc1)C(N)=O)C(C)C,"Transferrin receptor protein 1 (Tfrc, Mus musculus, UniProt Q62351)",flow cytometry,DC2.4,"48 h, pH 6, replicate 3, unit not given",relative to: 0 h,surface TFRC expression,0.915
Oc1ccc(/C=C/c2cc(O)cc(O)c2)cc1,"O-methyltransferase (Sorghum bicolor, UniProt A0A1B6PFV1)",ITC,,added: ADE+,,-TΔS,4.7 kcal/mol
O=C1Nc2ccc(Br)cc2C1=O,Dehaloperoxidase B ferric,"product, HPLC",,"added: 5-bromoindole 500 µM, H2O2 50 µM",,share of total products,4.2%
CCC1(O)CCCN(C(=O)c2ccc(-c3ccc(F)c(NC(=O)CCl)c3)cc2)C1 (centres unmarked),"DNA dC->dU-editing enzyme APOBEC-3A (Homo sapiens, UniProt P31941)","covalent modifier, intact protein mass spectrometry, measured: adduct +26691 Da",,"250 µM, 3 h, 10-fold molar excess",,protein adduct,19%
CC(=C/C(=O)O)/C=C/C=C(\C)C1C=C2C(C)(C)CCCC2(C)O1 (centres unmarked),"Rhodopsin (RHO, Homo sapiens, UniProt P08100, T17M)","ER retention, immunostaining co-localization, measured: opsin with calnexin",COS-7 transfected T17M,10.00 µM,,Pearson correlation coefficient,0.5
CC[C@H](C)[C@H](NC(=O)[C@@H]1CCCN1C(=O)[C@H](CC(C)C)NC(=O)[C@H](Cc1ccccc1)NC(=O)[C@H](CCC(=O)O)NC(=O)CNC(=O)[C@@H](NC(=O)[C@H](CCC(=O)O)NC(=O)[C@H](CCC(=O)O)NC(=O)[C@H](CC(=O)O)NC(=O)[C@H](CC(C)C)NC(=O)[C@H](CCC(N)=O)NC(=O)[C@H](CC(C)C)NC(=O)[C@H](CCC(N)=O)NC(=O)[C@H](C)NC(=O)[C@H](Cc1ccccc1)NC(C)=O)[C@@H](C)O)C(=O)N[C@@H](CCC(N)=O)C(=O)N1CCC[C@H]1C(=O)N[C@@H](C)C(=O)N[C@@H](CCC(N)=O)C(N)=O,KEAP1 Kelch domain,"binding, ITC",,"pH 7, 298.15 K",,TΔS,-7.18 kcal/mol
CC1(C)C(N(O)C(=O)Nc2ccc(Cl)cc2)N(c2ccc(Cl)cc2)C(=O)N1CC(=O)N/N=C/C=C/c1ccc([N+](=O)[O-])o1 (centres unmarked),"Protein transport protein Sec61 subunit alpha isoform 1 (Homo sapiens, UniProt P61619)","Sec61-dependent translocation, inhibitor, measured: CD4 signal peptide-FLuc reporter",HEK293,"concentration not given, 6 h",,FLuc/RLuc ratio,0.0982
